Experimental data gathered from unrelated publications.
Each numbered part is a random draw from the data of one study; scales do not carry over between parts. Changes are numbered by the printed parent chain.

Block 1 — method: RNA Bind-n-Seq; molecule type: RNA; sample: in vitro; tested at: 365 nM; baseline: no-protein control; direction: higher = stronger binding
Target: RNA binding protein fox-1 homolog 2, RRM domain, GST-SBP tag (RBFOX2, Homo sapiens, UniProt O43251-10, residues 100-194)
Setting: natural RNA segment, single round, ends assumed
Constant ends, left off below: GGGAGUUCUACAGUCCGACGAUC … UGGAAUUCUCGGGUGCCAA
Under “RBNS enrichment (R)”, `AGAUUACAGUAUGUCCCAUCAAACAUCUGCUGUAGGUGAGGGAGUGGAUUUGAAGAGGGGUUGAAAGAAAGGAAGCAUUCCUCUUGCUUUAAACUAGUAUGUGCAUCAGA` is recorded as 6.28.
For `UCAUGGGCCAGGUCCUCAGUUUCUAACUCUUUCCCUUCCCCACAGUUCGUUGUCGCCAUGCGGCUUUUGCUCAGUCUAGUAUUCUGCCUUGUUUUUCACAUUGGGAACCC`, “RBNS enrichment (R)” read 0.809.
`CUUAUAGACUAUAGGCAAUAAAGCUAACAAUAAACCUUAUUUAACACAAACCACAUCCAUAUCCUCUGUUCAUUUGAUUUUGGAAAAAGUAGCAUAUCCAGUAGUUUCAG` — result for “RBNS enrichment (R)”: 0.677.
`CUGUGCUCUGCCAUCCAUCCAGACAGAAACCAGCCCCAACGCCUCCAGUUCUGUUUUUGCAUCGUGACAAAGAGAGCACAGCCAAUUCUCAUGCUGGCUUCUUCAGAUAC` — result for “RBNS enrichment (R)”: 1.33.
`CAAUAGAUACCGCUGAAGGAUCCUUGGAGUCCAUCAUCCAUAUCUCAGUGGUCAUUCUUCUGCCUUCCAAAAUCUUAGUUUUAUAAAAGCAUUGUGUAUGACAGAGUGGC`: “RBNS enrichment (R)” 0.784.
`UCCUUCGAGUGCACACUGUACCUCUGGAUGCCCGGGAUGGCAAUGAGGCAGAGCCUGAUGACGAUCAUUUUUCCAUUGGCGUGAGCUCCCGCCUGGAUGGACUGAGGAAU` — result for “RBNS enrichment (R)”: 0.419.
`GGCAUUAAACAGCCACCAUCGCAUAGAACCUUCCCUGUAACCCAGACAUUGUCAAGGAAGAUAUACGUAGAGGAUCUUAACUGACUCACAGGAAGCACUUGUCCCCCCUG` — result for “RBNS enrichment (R)”: 0.366.
`AAAUGUAUAUAACAUUAAUAAUGUCGCGUAGGUGUAGGUUCCUGGAUGCAUUUGGAUGUACAGACUGACUGGGGGACUGUAUUGCGAUGAUGAUUGGUGUAGAAACGUAU` — result for “RBNS enrichment (R)”: 1.91.

Block 2 — method: protein-binding microarray; molecule type: double-stranded DNA, one strand shown; sample: in vitro; tested at: not given; direction: higher = stronger binding
Target: Max dimerization protein 1, bHLH-zipper, MAX partner unstated (MXD1, Homo sapiens, UniProt Q05195, residues 56-136)
Setting: k-mer, scored over probes, only values ≥0.25
Construct (chain): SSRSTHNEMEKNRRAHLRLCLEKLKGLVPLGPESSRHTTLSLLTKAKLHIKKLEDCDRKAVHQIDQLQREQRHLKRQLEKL
The E-score of `GCACGCTA` is reported as 0.319.
With `CACATGGA` the E-score was 0.44.
The E-score of `GAGCGTGC` is reported as 0.37.
With `AAATAGCG` the E-score was 0.257.
`CACGTGGG` has an E-score of 0.493.
`ATGTGGCC` has an E-score of 0.268.
For `GCTCCCCA`, the E-score was 0.268.
`ACATGTGA` has an E-score of 0.462.
The E-score of `ACGCGCGG` is reported as 0.262.
With `CATGCTCA` the E-score was 0.351.
`CATACACG` has an E-score of 0.331.
`CCACATGG` gave an E-score of 0.477.
The E-score of `CGTGACCA` is reported as 0.298.

Block 3 — method: DHFR PCA, deep sequencing; sample: yeast; with: (+)-ABA 17 µM; baseline: wild-type fitted maximum; direction: higher = stronger binding
Target: ABI1, truncated, D143A, DHFR fusion (Arabidopsis thaliana)
Setting: methotrexate growth selection, single substitutions
Starting sequence: PYL1, truncated, DHFR fusion (Arabidopsis thaliana); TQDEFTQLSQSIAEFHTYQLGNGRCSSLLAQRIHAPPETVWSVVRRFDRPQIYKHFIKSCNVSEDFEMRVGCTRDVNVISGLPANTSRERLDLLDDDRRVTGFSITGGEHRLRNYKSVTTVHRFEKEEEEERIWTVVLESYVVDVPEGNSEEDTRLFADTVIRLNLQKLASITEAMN
`N77R` — result for “relative binding score”: 94.4%.
`R74M` — result for “relative binding score”: -1.35%.
For `E152M`, “relative binding score” read 73.4%.
Under “relative binding score”, `G107Q` is recorded as 32.5%.
`E139L` — result for “relative binding score”: 40.8%.
`A35N`: “relative binding score” -3.23%.
`V145F`: “relative binding score” 9.64%.
Under “relative binding score”, `Y18G` is recorded as 46.4%.
Under “relative binding score”, `F15V` is recorded as 23.7%.
For `T1V`, “relative binding score” read 89.1%.
For `R155N`, “relative binding score” read 45.9%.
Under “relative binding score”, `S9K` is recorded as 81.2%.
Under “relative binding score”, `S87N` is recorded as -3.46%.
`Y115N` — result for “relative binding score”: 8.43%.
`E109I` — result for “relative binding score”: 67%.
`G102Q`: “relative binding score” 15.5%.
`N61I`: “relative binding score” 86.9%.
Under “relative binding score”, `S104C` is recorded as 38.2%.
`T135P`: “relative binding score” 15%.
For `A170W`, “relative binding score” read 19.1%.

Block 4 — organism: Saccharomyces cerevisiae; read-out: binding; method: yeast competitive growth sequencing; molecule type: peptide; strain: cyclin D2-Cln2 fusion strain; setting: peptide tiling library; direction: direction not given
With `QDYERRLLRQIVIQNE` the enrichment score was -0.609.
The enrichment score of `ALLRRLQDVANDRGSH` is reported as 1.87.
`RSLKLDGLLEEN` has an enrichment score of -0.596.
The enrichment score of `CFRCLLFSFSGRSGVE` is reported as -1.78.
`LAKRALKYTD` gave an enrichment score of -0.661.
With `IQKKLRFEDTLEFVGF` the enrichment score was -0.548.
With `RVSGLLSWTLSRVLWL` the enrichment score was -1.47.
`TSSAQRRLEIPSGGAD` gave an enrichment score of -2.01.
`VLLKRLQDVVSERANH` has an enrichment score of 2.05.

For quick reference, copied from above (block 1):
`AAAUGUAUAUAACAUUAAUAAUGUCGCGUAGGUGUAGGUUCCUGGAUGCAUUUGGAUGUACAGACUGACUGGGGGACUGUAUUGCGAUGAUGAUUGGUGUAGAAACGUAU` — result for “RBNS enrichment (R)”: 1.91.
`GGCAUUAAACAGCCACCAUCGCAUAGAACCUUCCCUGUAACCCAGACAUUGUCAAGGAAGAUAUACGUAGAGGAUCUUAACUGACUCACAGGAAGCACUUGUCCCCCCUG` — result for “RBNS enrichment (R)”: 0.366.
`CUUAUAGACUAUAGGCAAUAAAGCUAACAAUAAACCUUAUUUAACACAAACCACAUCCAUAUCCUCUGUUCAUUUGAUUUUGGAAAAAGUAGCAUAUCCAGUAGUUUCAG` — result for “RBNS enrichment (R)”: 0.677.
`UCCUUCGAGUGCACACUGUACCUCUGGAUGCCCGGGAUGGCAAUGAGGCAGAGCCUGAUGACGAUCAUUUUUCCAUUGGCGUGAGCUCCCGCCUGGAUGGACUGAGGAAU` — result for “RBNS enrichment (R)”: 0.419.
